Assay results of several laboratories.
“And” joins repeats or separate records; there may be more than shown. Numbers after ± are the reported error.

COc1ccc(C[C@H](NC(=O)[C@H](C)NC(=O)CN2CCOCC2)C(=O)N[C@@H](Cc2ccccc2)C(=O)C2(C)CO2)cc1 (stereo in doubt)
inhibition (BT-16; cell viability, MTT; 10 µM, 72 h): 93.8%

O=C(/C=C/C=C/C=C/C1CCCCC1)NC1=C[C@@](O)(/C=C/C=C/C=C/C(=O)NC2=C(O)CCC2=O)[C@@H]2O[C@@H]2C1=O
GI50 (CAL-51; cell growth, CellTiter-Glo; 78 h): 15.6 µM

Cc1[nH]c2ccccc2c1CCNCc1ccc(/C=C/C(=O)NO)cc1
early apoptotic cells (C13; annexin V/PI flow cytometry; concentration not given, 48 h; baseline: control subtracted): 6.7 ± 2%

Cl.O=C(Nc1ccccc1-c1cn2c(CN3CCNCC3)csc2n1)c1cnc2ccccc2n1
inhibition (BT-16; cell viability, MTT; 10 µM, 72 h): 95.2%

COc1cc(/C=C/C(=O)N2CCC=CC2=O)cc(OC)c1OC
mRNA level (MDA-MB-468; qRT-PCR, item: NFE2L1; 30 µM, 6 h; baseline: time zero): 61.7 ± 3.7%

Fc1ccccc1-c1ccnc2[nH]c(C(F)(F)F)nc12
Emax (L6 myoblasts; oxygen consumption rate, Seahorse XF; baseline: BAM15 maximal respiration): 6 to 22%

Clc1nc(NCc2ccco2)c2[nH]cnc2n1
ΔPSI (FD iPSC-derived cardiomyocytes; alternative splicing, RNA-seq, item: CEP78 exon chr9:78265858-78265906; unit not given; baseline: DMSO minus compound): 0.272

CCn1cc(-c2cc(Cn3ccnc3)cc3c2CCN([C@H](c2cc(OC)ccn2)C2CC2)C3=O)c(C(F)(F)F)n1
EC50 (NCI-H441; cell growth, inhibitor; 120 h): 14.5 µM

CCOc1cc(-c2nnc(CCN(C)C)n2C)ccc1Nc1ncc2cc(C)nc(NCC(C)(C)C)c2n1
GI50 (CAL-51; cell growth; 72 h): 0.395 µM

Cc1cc(Nc2ncc(Cl)c(Nc3ccccc3S(=O)(=O)C(C)C)n2)c(OC(C)C)cc1C1CCNCC1
log2 fold change (SK-N-AS; LC-MS/MS phosphoproteomics, item: AAAS phosphorylation; 200 nM, 60 min; baseline: untreated): -0.639

CCn1cc(-c2cc(Cn3ccoc3=N)cc3c2CCN([C@@H](C)c2cc(OC)ccn2)C3=O)c(C(F)(F)F)n1
EC50 (JHH5; cell growth; 120 h): 0.952 µM

CC(C)(C)NC(=O)[C@@H]1CN(Cc2cccnc2)CCN1C[C@@H](O)C[C@@H](Cc1ccccc1)C(=O)N[C@H]1c2ccccc2C[C@H]1O
maximal efficacy (ΔE-expressing cells; ΔE mislocalization, high-content imaging): inactive

Cn1cc(-c2ccc(-c3cncc(Cl)c3N3CCC4(CCNC4=O)CC3)cc2)cn1
log2 fold change (COLO 205; gene expression, microarray, item: HOXA4 mRNA; concentration not given, 2 h; baseline: untreated cells): 2.26

COc1cc([C@@H]2c3cc4c(cc3[C@@H](O[C@@H]3O[C@@H]5CO[C@@H](C)O[C@H]5[C@H](O)[C@H]3O)[C@H]3COC(=O)[C@H]23)OCO4)cc(OC)c1O
G2 phase cells (HepG2 spheroids; flow cytometry; 1.7 µM, 24 h): 61.1 ± 18.3%

COc1cccc2c1c(O)c(C(=O)N(C)c1ccc(C(F)(F)F)cc1)c(=O)n2C
mRNA level (mouse bone marrow-derived macrophages; qPCR, item: Cd206; concentration not given, with: IL-4): decreased

Cc1cccc(-c2[nH]c(CNc3ccccc3F)nc2-c2ccc3ncnn3c2)n1
viability (bone marrow CD138+ myeloma cells; XTT; 3 µM, phenol red-free RPMI): 6%

CCc1cnc(N2CCC(c3nc(COc4ccc(-n5cnnn5)cc4)cs3)CC2)nc1
normalized enrichment score (HEK-293T; RNA-seq GSEA, item: HALLMARK_KRAS_SIGNALING_UP; concentration not given; direction not given): 0.903

Nc1ncnc2c1ncn2[C@@H]1O[C@H](CO)[C@@H](O)[C@H]1O
viability (unstimulated human T cells; 31.6 µM, 72 h; higher = more viable cells): 76.8 a.u. and 85 a.u. and 82.3 a.u.

CSc1cc(Oc2ccnc3[nH]c(=O)cnc23)ccc1NC(=O)Nc1cc(C(C)(C)C)nn1-c1ccccc1
phospho/total ratio (patient-derived cell line clone B; RPPA, item: GSK-3β pSer9; human; 1 µM, 4 h; baseline: DMSO): 0.62

Cc1cc(C2CCCCC2)n(O)c(=O)c1
inhibition (BT-16; cell viability, MTT; 10 µM, 72 h): 86.6%

A few entries again:
O=C(/C=C/C=C/C=C/C1CCCCC1)NC1=C[C@@](O)(/C=C/C=C/C=C/C(=O)NC2=C(O)CCC2=O)[C@@H]2O[C@@H]2C1=O
GI50 (CAL-51; cell growth, CellTiter-Glo; 78 h): 15.6 µM

Cc1[nH]c2ccccc2c1CCNCc1ccc(/C=C/C(=O)NO)cc1
early apoptotic cells (C13; annexin V/PI flow cytometry; concentration not given, 48 h; baseline: control subtracted): 6.7 ± 2%

Cl.O=C(Nc1ccccc1-c1cn2c(CN3CCNCC3)csc2n1)c1cnc2ccccc2n1
inhibition (BT-16; cell viability, MTT; 10 µM, 72 h): 95.2%
